Assay results from different studies.
Each numbered part is a random draw from the data of one study; scales do not carry over between parts. Positions count from the first letter of the parent shown.

Series 1
Target: RNA binding protein fox-1 homolog 2, RRM domain, GST-SBP tag (RBFOX2, Homo sapiens, UniProt O43251-10, residues 100-194)
Method: RNA Bind-n-Seq
Form: RNA
Matrix: in vitro
Concentration: 365 nM
Notes: natural RNA segment, single round, ends assumed
Reference: no-protein control
Reading: higher = stronger binding
All sequences stand within: GGGAGUUCUACAGUCCGACGAUC … UGGAAUUCUCGGGUGCCAA
Target sequence (chain): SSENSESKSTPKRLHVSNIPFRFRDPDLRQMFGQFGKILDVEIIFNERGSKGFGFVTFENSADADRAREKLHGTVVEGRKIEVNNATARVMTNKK
Sequence | RBNS enrichment (R)
AGAAAUGGAAUGAAUCUCCAAGGCUUUUAGGACUGUCUGAAAAUUUGAGGCUGGGUGAAGUUAAAACACCUUUCCUUAUGUCUCCUGACCUGAAAUUGUAUAGUGUUGAU | 1.02
UUCAUGAUGACAACUUGAUUUAUGCAUGAAUAUCAACAGUAUUUCCAUAUAGUAAAAUAACAUUUCUGCCCAGGAUAAUAGUCACAGUUUUCCAGGGAGGGAAUGAUAUA | 0.796
CUUUACUCUGUGAUUUCAGGUUCUAACAACAUGGCCUGUCGUUUUAUUUUAAAAGUUCCUGCUGUUCUUUACAAAUCCAGUUCUGAGGUGCAGGCCACCAACAGCAGCGU | 0.454
GAAUCAACAUAUGGUAGGGAUUACAGUGGGGGCAUUUCUUUAUAUCACCUCUUAAAAACAUUGUUUCCACUUUAAAAGUAAACACUUAAUAAAUUUUUGGAAGAUCUCUG | 0.363
UAGCCUAUGACCCAAGACUGUUUGUGGCCUUAGGAACAAUUGCUUAAGCAGGUCAAGCAUUUUGAAUUUCAAUGUAGGCCUUCAGGAUCUUCUCACAUGAGGUCAACUGC | 0.419
GUAAGAGAGCAAAGUUUCCUUCCUUUCUUCUCUUUCUUCAUUUUCUUUUUUUCUUUUUUGCCUUUUAUUCCUUUAAAAUUUCGCCUGGCAAAAAAUAAAUAAAUGGAACU | 0.639
CCAGGGUCCCUGCCCACUUCUGUUUUCCUAAUGUUUUUCUCUAUAAAGGGUCAGGCCCGUCAGCAUCACUGAUGGGAAUAAAAGUAUUAAUGCUUUGUGACAGCCUCUGC | 0.585
GGGAAGAAGUUGUAUCUUAAGUGCCACCUUCAAGUUUCUUAGUGGUGCCUGGUGCAUUCCGAGGCUACAUCCAGGCUCAUGGAAGGAGUGUAGUAUUCAUUUAGCCAUGU | 0.318
GAGCAUUGGCUGCUCCUCUAGAGGACCCAGGUUCAAUUCCCAGCGCCCACACAUCAGCUCACAACUGUCUGUAACCCAGUUCUAGGUGAUUUGAUACCCUCACACAGACA | 0.362
UUCAUUUUAUCAAAAGCAGGGCCCCUUUCAGAUCUCUCUUCAUUUCACCAUACAUCUUGGAAUUCUGUAAGUUUGUAUCCUAACUUGCCCAUAUUCUAAAUUUACAUAGU | 0.902
CAGCUAAUUUUUGUAUUUUUAGUAGAGAUGGGAUUUUGUCAUGUUGGCUAGGCUAGUCUCGAAUUCCUGACCUCAAGUGAUCCACCCGCCUUGGCCUCUCGAAGUGCUGG | 1.54
CCUAGAUGACUAUGCACACACUGGGUUUCAAGAUGAAAUCUUCUUAUAUAUUCAGAUGGAAAAAAAUUUCCCCUUACACUCUUUCUCAAAAUACUCUCAUUUCGGUUUUU | 0.844

Series 2
Target: ATF1, bZIP domain (human)
Method: DHFR protein complementation
Matrix: yeast
Notes: single substitutions, most at no-binding floor
Reference: wild-type JUN-FOS pair
Reading: higher = stronger binding
Starting sequence: JUN, bZIP domain (human); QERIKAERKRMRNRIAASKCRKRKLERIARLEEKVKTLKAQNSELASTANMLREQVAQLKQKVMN; partner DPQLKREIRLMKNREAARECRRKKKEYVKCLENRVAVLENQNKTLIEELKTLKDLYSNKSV
Substitution | binding fitness [natural log]
K39E | -1.45
T48C | -1.41
T48P | -1.53
V56R | -1.51
T37R | -1.46
E33C | -1.47
L45W | -1.55
A49M | -1.6
N42W | -1.53
S47N | -1.46
A40W | -1.48
A29H | -1.39
A57V | -1.34

Series 3
Target: Ras GTPase-activating protein-binding protein 1, full length (G3BP1, Homo sapiens, UniProt Q13283)
UniProt Q13283, sequence (whole entry, looked up): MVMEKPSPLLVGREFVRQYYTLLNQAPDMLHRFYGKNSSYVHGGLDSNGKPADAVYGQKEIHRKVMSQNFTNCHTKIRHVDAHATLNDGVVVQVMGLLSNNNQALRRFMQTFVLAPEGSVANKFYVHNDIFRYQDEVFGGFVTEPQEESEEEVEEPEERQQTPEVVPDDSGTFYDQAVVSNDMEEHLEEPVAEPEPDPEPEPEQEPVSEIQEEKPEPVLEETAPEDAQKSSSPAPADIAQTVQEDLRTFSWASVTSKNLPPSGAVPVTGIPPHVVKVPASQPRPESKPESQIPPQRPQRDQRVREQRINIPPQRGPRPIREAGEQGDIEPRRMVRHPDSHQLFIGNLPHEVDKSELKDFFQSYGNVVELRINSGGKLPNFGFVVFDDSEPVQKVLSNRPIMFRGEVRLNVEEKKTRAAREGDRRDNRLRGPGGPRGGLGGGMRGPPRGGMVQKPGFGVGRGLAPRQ
Method: RNA Bind-n-Seq
Form: RNA
Matrix: in vitro
Concentration: 200 nM
Notes: whole 134-nt RNA, ends assumed
Added: 150 mM KCl
Reference: input library
Reading: higher = stronger binding
All sequences stand within: GGGAGUUCUACAGUCCGACGAUC … UGGAAUUCUCGGGUGUCAAGG
Sequence | log2 enrichment
CACAGACAACACGCACCCACACAGACACAGAGGGAAGGGGUUGGGAUGGGGACAGGGUGCACAGCAGGGCGGGGAAAGACCCCAGCCCCU | 1.93
CUCAAGUCCUGUGCUACACAUCGUAUGUACCGAAUCGGGUGGGAGGGAAAGGGAAAGUAUUAUGUUACGCCGUUCGGAUCUGCACUUCCA | 1.23
AGUCCUGUGCUACACAUCGUAUGUACCGAAUCGGUUUUUGGAAAAAAAGGAAAAAGGAAAGUAUUAUGUUACGCCGUUCGGAUCUGCACU | -1.31
UAACUUUAGAGGAGCAUCUGAUGGAUAUGGCAGUGGACGUGGAUUUGGGGAUGGCUAUAAUGGGUAUGGAGGAGGACCUGGAGGUGGCAA | 0.688
UCCUGUGCUACACAUCGUAUGUACCGAAUCGGAAAAAAGGAAAAAAGGGAAAAAAGGGGAAAGUAUUAUGUUACGCCGUUCGGAUCUGCA | -0.812
CCUGUGCUACACAUCGUAUGUACCGAAUCGGGGAAAAAAGGGAAAAAAGGGAAAAAAGGGAAAGUAUUAUGUUACGCCGUUCGGAUCUGC | -0.563
AAGUCCUGUGCUACACAUCGUAUGUACCGAAUCGGGUUUGGGAAAGGGUUUUUGGGAAAGUAUUAUGUUACGCCGUUCGGAUCUGCACUU | 0.244
UUUGGAGAAGGAACCCCACUCUCCAGCUGACCAGCCUGAACAACAGGCAGAAUCCACUUUGACAUCAGCUGAGACUAGGGGAAGCAAGAA | -0.663
GUCCUGUGCUACACAUCGUAUGUACCGAAUCGGGUUUUUGGUUUUUGGGGUUUUUGGGGAAAGUAUUAUGUUACGCCGUUCGGAUCUGCA | -0.521
CAAGUCCUGUGCUACACAUCGUAUGUACCGAAUCGGGGUUUGGGUUUGGUUUGGGAAAGUAUUAUGUUACGCCGUUCGGAUCUGCACUUC | -0.0861
CUCAAGUCCUGUGCUACACAUCGUAUGUACCGAAUCGGAGGAGGAAAAAAAGGAAAGUAUUAUGUUACGCCGUUCGGAUCUGCACUUCCA | -0.365
AGUCCUGUGCUACACAUCGUAUGUACCGAAUCGGGUUUUGGUUUUGGGGUUUUGGGGAAAGUAUUAUGUUACGCCGUUCGGAUCUGCACU | -0.346
UAAGGAUUCUAUCUGCUUACUGCUACAGACCUAUGUGUUAAGGAAUUCUUCUCCUCCUCCUUGCGUAGAAGUUGAUCAGCACUGUGGUCA | 0.0516
GCAGGAAGUAAAAACAAAUGGAAAUGCUUCGUAUAGUGGCAGGGGUGGGGGUUGCUAAGGAAAGGGUGGGAUGGGAGUGGGUAAAGAGUU | 0.91

Series 4
Target: Prothrombin, mature alpha-thrombin (F2, Homo sapiens, UniProt P00734)
Method: aptamer microarray, sandwich
Form: DNA with 2'F-ANA
Matrix: in vitro
Concentration: 200 nM
Notes: whole 15-mer aptamer, many near background
Added: Cy3 exosite-II aptamer, 400 nM
Reading: higher = stronger binding
Sequence: GGTTGGTGTGGTTGG
Modification | mean fluorescence intensity [a.u.]
2'F-ANA at 2 4 6 14 | 91.3
2'F-ANA at 2 3 5 6 7 8 9 10 13 15 | 58.3
2'F-ANA at 7 8 9 11 13 15 | 418
2'F-ANA at 1 2 3 5 8 10 11 12 13 15 | 55
2'F-ANA at 1 2 5 6 7 9 12 13 14 15 | 47.8
2'F-ANA at 1 6 9 11 12 13 15 | 192
2'F-ANA at 1 2 3 4 6 10 11 12 13 14 | 94.9
2'F-ANA at 2 3 4 6 7 10 14 | 174
2'F-ANA at 1 2 3 4 9 14 | 78.5
2'F-ANA at 3 4 6 7 8 9 10 11 12 13 | 226
2'F-ANA at 1 3 4 6 7 10 12 13 15 | 66.6
2'F-ANA at 1 2 5 7 9 11 12 13 14 15 | 48.1
2'F-ANA at 1 3 9 12 13 15 | 432
2'F-ANA at 1 3 5 6 7 8 9 11 12 | 120
2'F-ANA at 3 6 9 10 11 12 13 15 | 414
2'F-ANA at 1 2 3 4 5 6 7 8 | 66.8
2'F-ANA at 1 2 3 6 9 10 12 | 73.9
2'F-ANA at 7 9 10 11 12 13 | 182
2'F-ANA at 1 8 10 13 14 15 | 49.2
2'F-ANA at 2 3 5 6 7 10 12 13 | 55.3
2'F-ANA at 2 4 5 6 7 9 11 12 13 15 | 70.4
2'F-ANA at 5 6 7 8 9 14 | 47.6
2'F-ANA at 1 2 4 5 7 8 10 11 12 15 | 52
2'F-ANA at 2 9 11 12 15 | 545
2'F-ANA at 1 4 6 8 14 15 | 54.3

Series 5
Target: CCNB2, cyclin fold, Cln2 fusion (human)
Method: yeast growth competition, sequencing
Matrix: yeast
Notes: strong parent motif
Reference: not given
Reading: higher = stronger binding
Starting sequence: PKMYT1 docking peptide (human); SFEPRNLLSLFED; partner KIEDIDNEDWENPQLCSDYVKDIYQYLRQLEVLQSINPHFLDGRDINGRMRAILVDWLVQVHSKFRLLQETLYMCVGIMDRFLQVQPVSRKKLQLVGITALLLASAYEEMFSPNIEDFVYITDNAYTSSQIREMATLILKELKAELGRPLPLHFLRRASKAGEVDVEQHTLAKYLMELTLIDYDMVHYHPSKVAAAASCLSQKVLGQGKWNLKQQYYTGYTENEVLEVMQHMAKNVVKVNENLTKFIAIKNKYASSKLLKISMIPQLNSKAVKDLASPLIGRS
Substitution | normalised enrichment score
E3S | 0.53
F2Q | -0.152
L10Q | 1.13
R5C | 1.48
N6L | -0.458
P4W | 0.21
L10T | 0.747
E3A | 1.54
R5P | -0.686
F11M | -0.233
R5S | 0.607
S1I | 0.886
L10V | 0.813
E12C | 0.853
S9M | 0.99
F2A | 0.379
L8Q | 0.404
S9K | 0.616
N6A | 0.0413
E3V | 1.87
L7F | -0.586
L7P | -1.01
F11C | -0.807

Mixed results
Molecule | target | assay | test system | conditions | scale | quantity | result
PhoQ, residues 284 288 289 292 302 303 SASVAL | PhoP, residues 12 14 15 18 19 AGCRL (Escherichia coli, UniProt P23836) | Sort-seq, refers to: YFP reporter | E. coli | PhoQ-PhoP variant library, added: 10 µM Mg2+ | reference: high Mg2+ state, higher = stronger signaling | fold induction | 1.08
